Results gathered from unrelated publications.
A part holds a random share of what one study measured.

Series 1 — technique: RNA Bind-n-Seq; molecule type: RNA; matrix: in vitro; concentration: not given; reference: input RNA pool; direction: higher = stronger binding; measurement: bound/input enrichment
Target: RING finger protein unkempt homolog, zinc fingers 1-6, GST-SBP tag (UNK, Homo sapiens, UniProt Q9C0B0, residues 30-357)
Chain of UniProt Q9C0B0 (30-357, looked up): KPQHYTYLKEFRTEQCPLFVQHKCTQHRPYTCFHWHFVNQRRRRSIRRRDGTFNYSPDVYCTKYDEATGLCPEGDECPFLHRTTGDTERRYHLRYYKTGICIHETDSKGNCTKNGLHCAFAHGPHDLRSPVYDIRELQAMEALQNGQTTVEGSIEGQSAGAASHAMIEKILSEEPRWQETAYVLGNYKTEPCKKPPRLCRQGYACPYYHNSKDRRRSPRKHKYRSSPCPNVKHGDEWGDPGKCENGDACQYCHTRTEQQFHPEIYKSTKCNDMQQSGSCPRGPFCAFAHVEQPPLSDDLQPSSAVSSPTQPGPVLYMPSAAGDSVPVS
Setting: RNA with constant flanks, human and mouse sites, ends assumed
Shared flanks, not repeated: GGGAGUUCUACAGUCCGACGAUC … CAACAGAGGAUUGAGCAUCA
GCCUUCUUAUUGAUUUGUGUUGUCCUGAUCUGCAUCUUCACAAAAAGCCAGCGUUUGAAGGCCGUGGUCCUUGGAGGAGCACAGGUGUGCUCCAGGGUAAUCCCGCAGUGCCUCCAGAGG: 0.11 ratio
GGCCUGGGACCGUCCUGGGCUAGUACAAAUAGCGGCAGUGGAGGCUCGAGAGGAAAGUUUGUUAGUGGAGGCAGUGGUAGAGGCCGUCAUGUACGGUCCUUUACUCGAUAGAUGUGUUCU: 0.65 ratio
GAUGGCCUUACUAAGUUUUUUACACCAUCACCUGAUGGUCGCAGAUCACGAGGUGAAAUUAUAGACUUUUCAAAGCACUAUCGUCCAAGGAAAAAGGUCUCUCAGAAACAGUCAUGCACU: 0.107 ratio
AGUCAUCUAGAAAGAAUCUGGGCAACUGGUAACCAUGAGCGAAUGGAUGAAGAAAAGCCCCUUAGAAUGGGAAGAUUACGUUUAUAAAGAAGUGAGAGUGAUAGCCUGUGAGAAGGAGUA: 3.37 ratio
GACUCCAGCAAGAAGAAAAGGUCAAAACCACGUGUUUCCCAAAAGUCCAGACUACAAUGAUUCAGCUGACUUGAGGACAAGGCCUAGCAUUUGGCUGAGCAGAGCCCUCUUCCUUGCCCU: 0.142 ratio
AAGGAAACAAUGUUUAGUAGUUUGAGAAGCCACGGGAUGUACAGUUUGGUUAUCAGCCUUAAUAGGCUACACUAGUGGUAGGUAGUGUAGACAGAGAUGUAAAUGUGCUGUUCCAAAACU: 0.829 ratio
UCCUCCCUUGCCCCAUUAUCUUUUCACCUCCCAGGUCUACCAUUUCAUGGUGGUCGUUGGGUCCGCCUAAAGGAUUUGAGCGUUUGCCAUUGCAAGCAUAGUGCUGUGUCAUCCUGGUCC: 0.277 ratio
CAGAGUUUACUUUUCAGAUCAAAUUGUUUAUGGUUUUACAAAUGUGAUUUCUACUUGCCAACUUUUUUUUUGUAACUUGUUCCCUUAUACCUCCUUGAUUGAAUACCAGACAGCCUAGAC: 0.686 ratio
GUCACAAGACCAAUAUUUGGUAUACUGGGCACAAUCCAUCUGGUGGCAGGUAAUUAUCUUAUAGUCAUUACCAAAAAGAUAAAAGUAGGUGAAUUUUUCAGUCAUGUAGUCUGGAAAGCA: 1.54 ratio
UUCCGACAGUUUAUACUGGUUAUGAAUGCUUUAGAUAACAGAGCUGCCCGAAACCAUGUUAAUAGAAUGUGCCUGGCAGCUGAUGUUCCUCUUAUUGAAAGUGGAACAGCUGGGUAUCUU: 0.161 ratio
AGAUUGUUCUCAAGCAGCUUGGUGGCCAUUGUCAGCCUCAAAGCUCCCAGGAAGCUGAAGGUUUGCCAUUUUAAGAAGGGAACUGAGAUAUGCAACUACAGCUACUCCAACACUAUCCUG: 0.323 ratio

Series 2 — technique: protein binding microarray; molecule type: double-stranded DNA, one strand shown; matrix: in vitro; concentration: not given; reference: not given; direction: higher = stronger binding; measurement: E-score
Target: Histone acetyltransferase KAT6A, winged helix 2, GST fusion (KAT6A, Homo sapiens, UniProt Q92794, residues 85-181)
Setting: 8-mer, flanks averaged, mean of 2 arrays, mostly near background
Residues (chain): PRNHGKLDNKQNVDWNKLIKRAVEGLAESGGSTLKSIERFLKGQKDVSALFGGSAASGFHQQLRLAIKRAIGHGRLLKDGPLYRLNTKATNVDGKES
AATTAACT: -0.102
ATTAAGTA: -0.0689
AAGGTCTG: -0.0816
CCGCACAG: 0.138
ACATAGGT: 0.0091
TAGCACTA: -0.0567
TGCCCGCA: 0.148
AAATCAAA: 0.00617
ATAACGGG: -0.0565
GACGCATC: 0.086
ATATAACC: -0.176
GAGGATAA: 0.123
CAAAGCAA: 0.273
ACAACGGA: 0.071
GTGTCCCA: 0.114
ATAGCGAA: 0.065
ATCTATAG: -0.187
CCCCTAGC: -0.0436
ACTCCGCA: -0.0949
CCAACTAC: -0.00166
AGCACCAC: -0.129
GTCGGAAA: 0.163
AATTGAGC: -0.0965
ACATTCTG: -0.195
GAATGCCA: 0.154

Series 3 — technique: RNAcompete; molecule type: RNA; matrix: in vitro; concentration: 20 nM; setting: 7-mer, probes averaged, single round; reference: mean of 7-mers; direction: higher = stronger binding; measurement: 7-mer Z-score
Target: PABPC1L2, full length, GST fusion (mouse, UniProt A0ABA7IW68)
Target sequence (chain): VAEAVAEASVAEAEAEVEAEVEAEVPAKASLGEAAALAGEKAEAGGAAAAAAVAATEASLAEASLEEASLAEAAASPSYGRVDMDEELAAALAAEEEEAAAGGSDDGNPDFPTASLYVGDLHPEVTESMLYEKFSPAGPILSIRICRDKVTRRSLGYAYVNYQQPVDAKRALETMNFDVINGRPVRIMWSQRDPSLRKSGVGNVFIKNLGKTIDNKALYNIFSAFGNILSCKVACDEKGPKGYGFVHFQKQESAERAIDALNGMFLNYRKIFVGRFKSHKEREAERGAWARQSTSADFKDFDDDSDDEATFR
UCACCCA: -0.353
CAGGGAC: 0.418
GCUUAUG: -0.217
UUGCAGU: -0.244
GCUUUCG: -0.36
AUUGGGU: 0.184
ACGGCAA: 0.245
AGACAAC: 0.129
UGCGUUC: -0.345
AAAUUCG: 1.37
ACGGUCU: -0.228
UAUGGCU: 0.0152
CCGGAGU: -0.0228
AUUCCAG: -0.0174
UGAAAAU: 2.32
AAACUGC: 1.09

Series 4 — technique: RNA Bind-n-Seq; molecule type: RNA; matrix: in vitro; concentration: 365 nM; reference: no-protein control; direction: higher = stronger binding; measurement: RBNS enrichment (R)
Target: RNA binding protein fox-1 homolog 2, RRM domain, GST-SBP tag (RBFOX2, Homo sapiens, UniProt O43251-10, residues 100-194)
Setting: natural RNA segment, single round, ends assumed
Shared flanks, not repeated: GGGAGUUCUACAGUCCGACGAUC … UGGAAUUCUCGGGUGCCAA
Target sequence (chain): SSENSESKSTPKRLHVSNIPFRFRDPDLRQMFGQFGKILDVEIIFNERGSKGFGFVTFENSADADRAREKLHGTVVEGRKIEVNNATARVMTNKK
AGUACUUGGCAGGGCAGCAGCAAUCUUGCUGUGUUUGAUAUAACAUGCAUCCUUGGGCAGGUUGCCCUUAAAUCUUACACUGUGGUGAAGGGAUGUUUUUUUUGUAAUGC: 0.803
UGUUAGUUACCACGAUGGUGUUUAAAUCAACACCCUAGCACGCUACCUGUCGGCCUGUUGGUGUCUGGCCUAUGUGAACCCUUGAAUGAUUCUUCUCGUUUGAAAGAUGA: 0.249
AUUUAAAUGAGACAAUCAUAUUAUUUUAGAAUCAUUUAUUUUAAAUGAGACAAUCAUUUUAAGUUUUAAGAUAACAGAAGUGACCAAUGUAAUUUCACAACACCUAAGGA: 0.254
CUUGUGAAUGAAAAUGAACCCAAGUGUUUCACGUGAAGAUGAGCCAUUUCUAUCAUGCAUUCCGAUGUCAUGGCAGAAAAUUUUGAAGAUAAAAAAAUAAGAUAAUCAAA: 0.791
AAGAGGAUAAAAGAAGCAUGAAUGAAAAGAAUGACAUUUCAAAAAAAUGGUUCAAUGAAAAACUAUAGCUAAAAUAUGUAAACCUUUCUAGGUAAACCGCUUGCCUUCAU: 4.97
ACAGAGUGAAGCCCCUGCCCUGGACCCCUGCUCCCUUCUACCCUUGAGGGCCACCAAUGGAAGAGCCCGCCCUUCAUUCUGCAGCUCCUGCGGCCAGGCUGAGCUCUGCC: 0.47
CGAGGCCCAUCUCCGCAUCCCGGGCUCCUGGCUCUUGAUUUUGUCUGCCACAGACAUCCCACAAAGCCGCUGCCAUUUUAUUAAAGUGUUUUGAUCCACUUUGCACUGGA: 0.461
AUACUCCAUACACUAUACUUCAUACUACAAGCUCCAUCUGUCCUCAGAUAAUUGUCUGACUUUUUUUAGUCUUAAGUAUAGAGGGAAUCCCCUAAAGGCUGAUCCAACUG: 0.33
UCAUCACAAAUCAAUACGGUAUACAGAGUUAAAGUGGAAUGAGGUAAGAAGAUACAGCUACAGAAAAUAGUUGCGUGUAUGGGAGAACAGUCAUUGUAAUUGGGUAGUUU: 0.74
ACAGAAGAAUAAAAUUCUUUGUAGACAGUCAUCUUCAAAUGUACUGUCCGCCCCUUGCCUGGAGACAGUUCUUCCCAUUUUAAACAAACAAACAAAAUUUAAGGCGUUUA: 0.627
CUUGGGACCUGGUUUGGGUGAGGGACCACCAGGGAGCCCAUGCUCUAUGGCUCCCUUCCCUUCUUACUGGUUCAGGGUAGCUUAUGCCUCAGGGUCAGAGCCCCUGAUCU: 0.171
GCGUCCACAAGGCCUCCUGAUACCAGCUUGGCUUCCCACAGCAAGCUCUAACUCUGAGAGCCUUUUGAGGAUGGGUGCUAGAGGGCCCGUGCCCCUAAAACAGCAGGCAG: 0.337

Some of these lines once more (series 1):
GCCUUCUUAUUGAUUUGUGUUGUCCUGAUCUGCAUCUUCACAAAAAGCCAGCGUUUGAAGGCCGUGGUCCUUGGAGGAGCACAGGUGUGCUCCAGGGUAAUCCCGCAGUGCCUCCAGAGG: 0.11 ratio
GGCCUGGGACCGUCCUGGGCUAGUACAAAUAGCGGCAGUGGAGGCUCGAGAGGAAAGUUUGUUAGUGGAGGCAGUGGUAGAGGCCGUCAUGUACGGUCCUUUACUCGAUAGAUGUGUUCU: 0.65 ratio
GAUGGCCUUACUAAGUUUUUUACACCAUCACCUGAUGGUCGCAGAUCACGAGGUGAAAUUAUAGACUUUUCAAAGCACUAUCGUCCAAGGAAAAAGGUCUCUCAGAAACAGUCAUGCACU: 0.107 ratio
AGUCAUCUAGAAAGAAUCUGGGCAACUGGUAACCAUGAGCGAAUGGAUGAAGAAAAGCCCCUUAGAAUGGGAAGAUUACGUUUAUAAAGAAGUGAGAGUGAUAGCCUGUGAGAAGGAGUA: 3.37 ratio
GACUCCAGCAAGAAGAAAAGGUCAAAACCACGUGUUUCCCAAAAGUCCAGACUACAAUGAUUCAGCUGACUUGAGGACAAGGCCUAGCAUUUGGCUGAGCAGAGCCCUCUUCCUUGCCCU: 0.142 ratio
AAGGAAACAAUGUUUAGUAGUUUGAGAAGCCACGGGAUGUACAGUUUGGUUAUCAGCCUUAAUAGGCUACACUAGUGGUAGGUAGUGUAGACAGAGAUGUAAAUGUGCUGUUCCAAAACU: 0.829 ratio
UCCUCCCUUGCCCCAUUAUCUUUUCACCUCCCAGGUCUACCAUUUCAUGGUGGUCGUUGGGUCCGCCUAAAGGAUUUGAGCGUUUGCCAUUGCAAGCAUAGUGCUGUGUCAUCCUGGUCC: 0.277 ratio
